# Experimental data gathered from unrelated publications.
# ± marks the error that the study gave.
Compound,cell line,test,setting,IC50
O=C(COc1ccc(-c2nc3ccc(Cl)cc3[nH]2)cc1)N1CCOCC1,Z-138,"cell growth or viability, MTS",72 h,> 100 µM
COc1cc(/C=C/C(=O)N2CCC=CC2=O)cc(OC)c1OC,Hs-578T,"cell growth or viability, MTT",,3 µM
CN1CCN(c2ccc3nc(-c4c(N)c5c(F)cccc5[nH]c4=O)[nH]c3c2)CC1,NCI-H460,"cell growth or viability, MTT",72 h,15.8 µM
CC(=O)OC1OC(OC(C)=O)[C@@H]2CCC=C[C@H]12 (stereo partly shown),human T lymphocytes,"interleukin-2 release, inhibitor, ELISA","pre-treated 2 h, added: concanavalin A 50 µg/mL 48 h",> 10 µM
Cn1c(=O)c(/C=C/c2ccccc2Br)nc2ccccc21,B16-F10,"cell growth or viability, MTT",72 h,18.9 µM
COc1cc([C@@H]2c3cc4c(cc3[C@@H](O[C@@H]3O[C@@H]5CO[C@@H](C)O[C@H]5[C@H](O)[C@H]3O)[C@H]3COC(=O)[C@H]23)OCO4)cc(OC)c1O,HCT-15/ADM2,"cell growth, XTT",72 h,4.42 µg/mL
c1cc(CN2CCCNCCNCCCNCC2)ccc1CN1CCCNCCNCCCNCC1,SUP-T1,"cell migration, inhibitor",4 h,0.06 µM
O=C(COc1ccc(-c2nc3ccccc3[nH]2)cc1)N1CCOCC1,Z-138,"cell growth or viability, MTS",72 h,> 100 µM
COc1cc2nc(N3CCN(C(=O)c4ccc(Cl)c(N)c4)CC3)nc(N)c2cc1OC,U-251,"cell growth or viability, MTT",48 h,3.6 µM
C/C(=C\CC/C(C)=C/CC[C@]1(C)CCc2cc(O)cc(C)c2O1)CC/C=C(\C)C(=O)O,differentiated HL-60,LTB4 formation,"10 min pre-incubation, added: thapsigargin",11 µM
Nc1ccn([C@@H]2O[C@H](CO)[C@@H](O)C2(F)F)c(=O)n1,HuCCT-1,"cell growth, MTT",72 h,< 5 µg/mL
Cc1c(C)n(-c2c(C(C)C)cccc2C(C)C)[c](=[Au][Se]c2ccccc2)n1-c1c(C(C)C)cccc1C(C)C,Vero E6,"cytotoxicity, crystal violet staining",96 h,> 100 µM
CC(=O)O[C@H]1C(=O)[C@@]2(C)[C@H]([C@H](OC(=O)c3ccccc3)[C@]3(O)C[C@H](OC(=O)[C@H](O)[C@@H](NC(=O)c4ccccc4)c4ccccc4)C(C)=C1C3(C)C)[C@]1(OC(C)=O)CO[C@@H]1C[C@@H]2O,HCT-15/ADM2,"cell growth, XTT",72 h,0.859 µg/mL
O=C1c2cccc(O)c2C(=O)c2c(O)cc(CO)cc21,Jurkat,"cell growth or viability, ATP luminescence",24 h,185 µM
CC(C)c1c(C(=O)Nc2ccccc2)c(-c2ccccc2)c(-c2ccc(F)cc2)n1CC[C@@H](O)C[C@@H](O)CC(=O)O,T47D,"cell growth, SRB",72 h,44.4 µM
C=CC(C)(CO)c1cc2c(=O)c(-c3ccc(O)cc3O)coc2cc1O (stereo not shown),Hepa-1c1c7,cell growth or viability,,> 100 µM
O=c1[nH]c2ccccc2nc1/C=C/c1ccccc1[N+](=O)[O-],B16-F10,"cell growth or viability, MTT",72 h,40.5 µM
N=C(N)NCCC[C@H](NC(=O)[C@H](Cc1c[nH]c2ccccc12)NC(=O)[C@H](CCC(N)=O)NC(=O)[C@H](Cc1c[nH]c2ccccc12)NC(=O)[C@H](CCCNC(=N)N)NC(=O)[C@H](Cc1c[nH]c2ccccc12)NC(=O)[C@H](CCC(N)=O)NC(=O)[C@H](Cc1c[nH]c2ccccc12)NC(=O)[C@H](CCCNC(=N)N)NC(=O)[C@@H](N)CCCNC(=N)N)C(N)=O,MCF-12,"cell viability, MTT",2 h,> 121 µM
O=c1[nH]c2ccccc2nc1/C=C/c1ccccn1,B16-F10,"cell growth or viability, MTT",72 h,0.058 µM
CCOC(=O)/C(C#N)=N\Nc1ccc(S(=O)(=O)Nc2ncccn2)cc1,A-431,"cell growth or viability, MTT",48 h,14.7 µM
O=C(/C=C/Cc1cccc2ccccc12)NO,urothelial cancer cell lines,"cell viability, CellTiter-Glo",72 h,9 to 21 µM
O=c1c(/C=C/c2ccccc2F)nc2ccccc2n1Cc1ccccc1,B16-F10,"cell growth or viability, MTT",72 h,5.56 µM
C/C=C1\NC(=O)[C@@H](NC(=O)[C@@H](NC(=O)[C@@H](COS(=O)(=O)O)OC)C(C)C)[C@@H](C)OC(=O)[C@H]([C@H](C)CC)NC(=O)[C@H](Cc2ccccc2)N(C)C(=O)[C@H](Cc2ccccc2)N2C(=O)[C@H](CC[C@H]2O)NC1=O,BEAS-2B,"cell growth or viability, MTT",24 h,0.106 µM
OC[C@H]1O[C@@H](Oc2cc3c(O)cc(O)cc3[o+]c2-c2ccc(O)c(O)c2)[C@H](O)[C@@H](O)[C@@H]1O,Hepa-1c1c7,cell growth or viability,,> 100 µM
N.N.O=C([O-])C1(C(=O)[O-])CCC1.[Pt+2],NCI-H838,"cell growth or viability, MTT",4 h,224 µM
O=Cc1c(O)cc(O)cc1O[C@@H]1O[C@H](CO)[C@@H](O)[C@H](O)[C@H]1O,Hepa-1c1c7,cell growth or viability,,> 100 µM
CC(C)Oc1ccc(C(=O)Cn2ccnc2)cc1-n1c(CN2CCN(C(=O)COc3ccc(Cl)cc3)CC2)nc2ccccc2c1=O,SU-DHL-8,"cell viability, CellTiter-Glo",24 h,0.1 to 10 µM
CCc1c(-c2ccc(Cl)cc2)c(-c2cccc(N3CCN(c4ccc(NS(=O)(=O)c5ccc(N[C@H](CCN(C)C)CSc6ccccc6)c([N+](=O)[O-])c5)cc4)CC3)c2)c(C(=O)O)n1C,NCI-H1417,cell growth or viability,,0.06 to 0.09 µM
Nc1ccn([C@@H]2CS[C@H](CO)O2)c(=O)n1,"HepG2.A64, entecavir-resistant",cell growth,96 h,225.79 ± 0.04 µM
C#CCOc1ccc(/C=N\Nc2ccc([N+](=O)[O-])cc2[N+](=O)[O-])cc1,T47D,"cell growth or viability, MTT",48 h,175 µM
O=C(/C=C/c1ccc(CN2CCCCC2)c(O)c1)c1ccc(Br)cc1,WRL68 human normal liver cells,"cytotoxicity, MTT",72 h,> 100 µM
CN(C)CC[C@@H]1NC(=O)c2coc(n2)-c2coc(n2)-c2cccc(c2)-c2cccc(c2)-c2nc(co2)-c2nc(co2)CNC1=O,KB-3-1,"cytotoxicity, MTT",4 days,≥ 5 µM
Cc1ncsc1-c1ccc([C@H](C)NC(=O)[C@@H]2C[C@@H](O)CN2C(=O)[C@@H](NC(=O)CCCCCC(=O)N2CCN(CC[C@H](CSc3ccccc3)Nc3ccc(S(=O)(=O)NC(=O)c4ccc(N5CCN(CC6=C(c7ccc(Cl)cc7)CCC(C)(C)C6)CC5)cc4)cc3S(=O)(=O)C(F)(F)F)CC2)C(C)(C)C)cc1,Loucy,"cell growth, CCK-8",48 h,0.002 µM
Fc1ccc2nc(-c3ccc(OCc4cn(CCN5CCOCC5)nn4)cc3)[nH]c2c1,Z-138,"cell growth or viability, MTS",72 h,54.4 µM
Nc1nc2[nH]c(CCCc3ccc(C(=O)NCCCC(=O)O)s3)cc2c(=O)[nH]1,CHO RT16 (human FRα),cell growth,added: folic acid 200 nM,> 1 µM
CC(=O)[O][Pt]([NH2])([Cl])([Cl])([NH]C1CCCCC1)[O]C(C)=O,CH1,"cell viability, MTT",96 h,0.1 ± 0.02 µM
CCCC[C@@H](C=O)NC(=O)[C@H](CC(C)C)NC(=O)OCc1ccccc1,H4 cells overexpressing human APP K595N/M596L,"amyloid beta secretion, MSD immunoassay, item: amyloid beta 38",24 h,4 µM
CN1CCN(c2nc3ccccc3nc2/C=C/c2ccccc2F)CC1,B16-F10,"cell growth or viability, MTT",72 h,0.51 µM
CCCCCCCCCCCCCC(=O)OC[C@H](COP(=O)([O-])OCC[N+](C)(C)C)OC(=O)CCCCCCCCCCCCC,MH-22A,"cell viability, MTT",72 h,> 250 µM
C#CCOc1ccc(/C=N\NC(N)=S)cc1,T47D,"cell growth or viability, MTT",48 h,130 µM
CC1=CC(C)=[N+]2C1=C(CCCC(=O)O)c1c(C)cc(C)n1[B-]2(F)F,HEp-2 cells,phototoxicity,added: light 1.5 J/cm^2,> 100 µM
Cc1cc(C(c2ccccc2)c2ccccc2)c(-n2ccn(-c3c(C(c4ccccc4)c4ccccc4)cc(C)cc3C(c3ccccc3)c3ccccc3)[c]2=[Au][Se]c2ccccc2)c(C(c2ccccc2)c2ccccc2)c1,Vero E6,"cytotoxicity, crystal violet staining",96 h,> 100 µM
C=CC(=O)N1CCC([C@@H]2CCNc3c(C(N)=O)c(-c4ccc(Oc5ccccc5)cc4)nn32)CC1,OCI-Ly10,"cell growth or viability, CCK-8",72 h,0.846 µM
Cc1cc(Nc2ncnc3ccc(NC4=NC(C)(C)CO4)cc23)ccc1Oc1ccn2ncnc2c1,A-431,"cell growth or viability, ATP luminescence",72 h,28.5 µM
CCN(CC)CCOc1ccc(-c2nc3ccc(Cl)cc3[nH]2)cc1F,Z-138,"cell growth or viability, MTS",72 h,2 µM
COc1ccc([C@H](CC(=O)O)N2CCN(CCCc3ccc4c(n3)NCCC4)C2=O)cn1,human podocytes,cell migration,"48 h, added: puromycin 15 µg/mL",0.0099 µM
CC(=O)O[C@H]1C(=O)[C@@]2(C)[C@H]([C@H](OC(=O)c3ccccc3)[C@]3(O)C[C@H](OC(=O)[C@H](O)[C@@H](NC(=O)c4ccccc4)c4ccccc4)C(C)=C1C3(C)C)[C@]1(OC(C)=O)CO[C@@H]1C[C@@H]2O,BEAS-2B,"cell growth or viability, MTT",72 h,0.25 µM
O=c1[nH]c2ccccc2nc1/C=C/c1ccccc1Cl,NCI-H460,"cell growth or viability, MTT",72 h,16.4 µM
CC[C@H](C)[C@H](N)C(=O)N[C@H](C(=O)N[C@@H](CCCNC(=N)N)C(=O)N[C@@H](Cc1c[nH]c2ccccc12)C(=O)N[C@@H](CO)C(=O)N[C@@H](CCCCN)C(=O)N[C@@H](CCCCN)C(=O)N[C@H](C(=O)N1CCC[C@H]1C(=O)N[C@@H](CS)C(=O)N[C@H](C(=O)N[C@@H](CO)C(=O)O)C(C)C)C(C)C)C(C)C,SUP-T1,"AKT phosphorylation, inhibitor, phosphoflow cytometry","added: CXCL12 100 ng/mL, 2 min",38 ± 26.9 µM
O=c1c(/C=C/c2ccccn2)nc2ccccc2n1Cc1ccccc1,B16-F10,"cell growth or viability, MTT",72 h,32.9 µM
Cc1cc(O)c2c(c1)C(=O)c1cc(O)cc(O)c1C2=O,Jurkat,"cell growth or viability, ATP luminescence",24 h,9 µM
C#CCOc1ccc(/C=N\NC(=O)c2ccccc2)cc1,T47D,"cell growth or viability, MTT",48 h,208 µM

# Excerpt of the above:
Compound,cell line,test,setting,IC50
Cc1cc(Nc2ncnc3ccc(NC4=NC(C)(C)CO4)cc23)ccc1Oc1ccn2ncnc2c1,A-431,"cell growth or viability, ATP luminescence",72 h,28.5 µM
CCN(CC)CCOc1ccc(-c2nc3ccc(Cl)cc3[nH]2)cc1F,Z-138,"cell growth or viability, MTS",72 h,2 µM
COc1ccc([C@H](CC(=O)O)N2CCN(CCCc3ccc4c(n3)NCCC4)C2=O)cn1,human podocytes,cell migration,"48 h, added: puromycin 15 µg/mL",0.0099 µM
